# Measurements collected from several papers.
# Each line is one published result; not all experiments were run side by side. Several values in a cell are separate wells, animals, samples, runs or records. ± marks the error that the study gave.
SMILES,test,system,setting,scale,measurement,result
C=Cc1c(C)c2cc3nc(c(CC(=O)O)c4[nH]c(cc5nc(cc1[nH]2)C(C)=C5CC)c(C)c4C(=O)O)[C@@H](CCC(=O)NCCCC[C@H](NC(C)=O)C(=O)N[C@@H](Cc1ccccc1)C(=O)N[C@@H](Cc1ccccc1)C(=O)N[C@H](C(=O)N[C@@H](CC(C)C)C(=O)N[C@@H](CCCCN)C(=O)N[C@@H](CO)C(=O)NCC(=O)N[C@@H](CCC(N)=O)C(=O)N[C@@H](Cc1ccc(O)cc1)C(=O)N[C@@H](C)C(=O)N[C@@H](CO)C(=O)N[C@@H](Cc1ccc(O)cc1)C(=O)N[C@@H](Cc1c[nH]cn1)C(=O)N[C@@H](CS)C(=O)N[C@@H](Cc1c[nH]c2ccccc12)C(=O)N[C@@H](CS)C(=O)N[C@@H](Cc1c[nH]c2ccccc12)C(=O)N[C@@H](CCCNC(=N)N)C(=O)N[C@@H](CC(=O)O)C(=O)N1CCC[C@H]1C(=O)NCC(=O)N[C@@H](CCCNC(=N)N)C(=O)N[C@@H](CO)C(=O)NCC(=O)NCC(=O)N[C@@H](CO)C(=O)N[C@@H](CCCCN)C(N)=O)C(C)C)[C@@H]3C,,"mouse, blood",0.5 h,,blood concentration,152 µg/mL and 163 µg/mL
C=CC(=O)Nc1cccc(Cn2ncc3cnc(Nc4cnn(CCOC)c4)nc32)c1,,"Sprague-Dawley rat female, serum","oral, 180 mg/kg, day 28, 28-day subacute toxicity",,serum ALT,31.2 ± 10.1 U/L
C[C@@H]1COCCN1c1nc(NCc2cccnc2C(F)(F)F)c2cccnc2n1,,human hepatocytes,,,intrinsic clearance,3.4 µL/min/10⁶ cells
CC(C)[C@@H]1NC(=O)CNC(=O)[C@H](CC(N)=O)NC(=O)[C@H](CCCNC(=N)N)NC(=O)[C@H](Cc2ccc(O)cc2)NC(=O)[C@H](C(C)C)NC(=O)[C@@H](NC(=O)[C@@H](NC(=O)[C@H](CC(N)=O)NC(=O)[C@H](Cc2c[nH]c3ccccc23)NC(=O)[C@H](C)NC(=O)[C@H](Cc2ccccc2)NC(=O)CNC(=O)[C@H](CCCCN)NC(=O)[C@H](Cc2ccccc2)NC(=O)[C@H](Cc2ccccc2)NC(=O)[C@H](CCCCN)NC(=O)OCC2c3ccccc3-c3ccccc32)C(C)C)CSSC[C@@H](C(=O)N[C@@H](Cc2c[nH]cn2)C(=O)N[C@@H](CCCNC(=N)N)C(=O)N[C@@H](CCCNC(=N)N)C(=O)N[C@@H](C)C(=O)N[C@@H](CC(N)=O)C(N)=O)NC(=O)[C@H](C(C)C)NC(=O)[C@H](CCCNC(=N)N)NC1=O,,ICR mouse,"ip, 10 mg/kg",direction not given,tremor score,0
CN1Cc2cc(Cl)ccc2-n2c(nnc2C2CCN(c3cccc([18F])n3)CC2)C1,,"C57BL/6 mouse male, urinary bladder","intravenous, 3.7 MBq, 1 min",,tissue uptake,1.72 ± 0.38 %ID/g
[2H]C([2H])([18F])[C@]([2H])(N)C(=O)O,PET,"athymic nude mice, U-87 MG","dose not given, 20 min post-injection",reference: tumour over muscle,tumour-to-muscle ratio,2.1 ± 0.5
O=C1NC2(CC2)COc2ncc(F)cc2[C@H]2COCCN2c2ccn3ncc1c3n2,,"Sprague-Dawley rat, male, thymus","oral, 20 mg/kg/day, 4 weeks, end of treatment",,organ-to-brain weight ratio,28.2 ± 5.02%
CC(=O)NCCCC[C@@H]1NC(=O)[C@H](Cc2c[nH]c3c(C)cccc23)NC(=O)[C@H]([C@@H](C)O)NC(=O)[C@H](CC(N)=O)NC(=O)[C@@H](NC(C)=O)C(C)(C)SSC(C)(C)[C@@H](C(=O)N[C@@H](Cc2ccc(OCCN)cc2)C(=O)N[C@@H](Cc2ccc3ccccc3c2)C(=O)NC2(C(=O)N[C@@H](CCC(=O)O)C(=O)N[C@@H](CC(N)=O)C(=O)N[C@@H](Cc3cccnc3)C(=O)N(C)CC(N)=O)CCOCC2)NC1=O,,"cynomolgus monkey, rectum","intravenous, 1 mg/kg",,tissue to plasma ratio,80%
CCCCCCCCCCCCCCCC(=O)N[C@@H](CCC(=O)NCCOCCOCCC(=O)NCCOCCOCCC(=O)NCCCC[C@H](NC(=O)[C@H](CC(=O)O)NC(=O)[C@H](CC(C)C)NC(=O)[C@H](Cc1ccc(O)cc1)NC(=O)[C@H](CCCCN)NC(=O)[C@H](CO)NC(=O)[C@H](Cc1ccc(O)cc1)NC(=O)[C@H](CC(=O)O)NC(=O)[C@H](CO)NC(=O)[C@@H](NC(=O)[C@H](Cc1ccccc1)NC(=O)[C@@H](NC(=O)CNC(=O)[C@H](CCC(N)=O)NC(=O)[C@@H](CO)NC(=O)[C@@H](N)Cc1c[nH]cn1)[C@@H](C)O)[C@@H](C)O)C(=O)N[C@@H](CCCNC(=N)N)C(=O)N[C@@H](CCCNC(=N)N)C(=O)N[C@@H](C)C(=O)N[C@@H](CCC(N)=O)C(=O)N[C@@H](CC(=O)O)C(=O)N[C@@H](Cc1ccccc1)C(=O)N[C@H](C(=O)N[C@@H](CCC(N)=O)C(=O)N[C@@H](Cc1c[nH]c2ccccc12)C(=O)N[C@@H](CC(C)C)C(=O)N[C@@H](CC(C)C)C(=O)N[C@@H](CC(N)=O)C(=O)N[C@H](C(=O)NCC(=O)NCC(=O)N1CCC[C@H]1C(=O)N[C@@H](CO)C(=O)N[C@@H](CO)C(=O)NCC(=O)N[C@@H](C)C(=O)N1CCC[C@H]1C(=O)N1CCC[C@H]1C(=O)N1CCC[C@H]1C(=O)N[C@@H](CO)C(N)=O)[C@@H](C)O)C(C)C)C(=O)O,,"rhesus monkey, male","subcutaneous, 60 µg/kg once daily, 28 days",,total cholesterol,2.21 ± 0.44 mmol/L
CSCC[C@H](N)C(=O)N[C@@H](C)C(=O)N[C@@H](CCCNC(=N)N)C(=O)N[C@@H](CCCNC(=N)N)C(=O)N[C@@H](CC(=O)O)C(=O)N[C@@H](CCCCN)C(=O)N[C@H](C(=O)N[C@@H](CC(=O)O)C(=O)N[C@@H](Cc1ccccc1)C(=O)N[C@@H](C)C(=O)N[C@@H](CCCNC(=N)N)C(=O)N[C@@H](CCCNC(=N)N)C(=O)N[C@@H](CCCNC(=N)N)C(=O)N[C@@H](CCCNC(=N)N)C(=O)NCCCCCC(=O)NCCCCC(NC(=O)CCCCCNC(=O)[C@H](CCCNC(=N)N)NC(=O)[C@H](CCCNC(=N)N)NC(=O)[C@H](CCCNC(=N)N)NC(=O)[C@H](CCCNC(=N)N)NC(=O)[C@H](C)NC(=O)[C@H](Cc1ccccc1)NC(=O)[C@H](CC(=O)O)NC(=O)[C@@H](NC(=O)[C@H](CCCCN)NC(=O)[C@H](CC(=O)O)NC(=O)[C@H](CCCNC(=N)N)NC(=O)[C@H](CCCNC(=N)N)NC(=O)[C@H](C)NC(=O)[C@@H](N)CCSC)[C@@H](C)O)C(=O)NCCCCC(NC(=O)C(CCCCNC(=O)CCCCCNC(=O)[C@H](CCCNC(=N)N)NC(=O)[C@H](CCCNC(=N)N)NC(=O)[C@H](CCCNC(=N)N)NC(=O)[C@H](CCCNC(=N)N)NC(=O)[C@H](C)NC(=O)[C@H](Cc1ccccc1)NC(=O)[C@H](CC(=O)O)NC(=O)[C@@H](NC(=O)[C@H](CCCCN)NC(=O)[C@H](CC(=O)O)NC(=O)[C@H](CCCNC(=N)N)NC(=O)[C@H](CCCNC(=N)N)NC(=O)[C@H](C)NC(=O)[C@@H](N)CCSC)[C@@H](C)O)NC(=O)CCCCCNC(=O)[C@H](CCCNC(=N)N)NC(=O)[C@H](CCCNC(=N)N)NC(=O)[C@H](CCCNC(=N)N)NC(=O)[C@H](CCCNC(=N)N)NC(=O)[C@H](C)NC(=O)[C@H](Cc1ccccc1)NC(=O)[C@H](CC(=O)O)NC(=O)[C@@H](NC(=O)[C@H](CCCCN)NC(=O)[C@H](CC(=O)O)NC(=O)[C@H](CCCNC(=N)N)NC(=O)[C@H](CCCNC(=N)N)NC(=O)[C@H](C)NC(=O)[C@@H](N)CCSC)[C@@H](C)O)C(N)=O)[C@@H](C)O (some centres unmarked),,"C57BL/6 mouse female, skull","dose not given, 3 h",reference: total,mean tissue distribution,15.2%
N#[11C]c1ccc(-c2csc(NN=C3CCCC3)n2)cc1,radio-HPLC,"C57BL/6 mouse, liver","intravenous, 37 MBq, 15 min",,unchanged compound,4.59% and 5%
CSCC[C@H](NC(=O)CNC(=O)[C@H](CCCCN)NC(=O)[C@H](CC(C)C)NC(=O)[C@@H]1CCCN1C(=O)[C@H](CO)NC(=O)[C@H](Cc1c[nH]cn1)NC(=O)[C@H](Cc1c[nH]c2ccccc12)NC(=O)[C@H](CCCNC(=N)N)NC(=O)[C@H](CC(C)C)NC(=O)[C@H](CCCNC(=N)N)NC(=O)[C@H](Cc1c[nH]c2ccccc12)NC(=O)[C@H](CS)NC(=O)CCCCCNC(=O)CN1CCN(CC(=O)O)CCN(CC(=O)O)CCN(CC(=O)O)CC1)C(=O)O [copper-64 labelled],ex vivo biodistribution,"male C57BL/6J mice, muscle","intravenous, 1.85 MBq, 0.5 h, B16-F10 tumour-bearing",,tissue uptake,0.78 %ID/g
N=C(N)NCCC[C@@H](NC(=O)[C@H](N)Cc1c[nH]c2ccccc12)C(=O)N[C@H](CCCCN)C(=O)N[C@H](Cc1c[nH]c2ccccc12)C(=O)N[C@H](CCCNC(=N)N)C(=O)N[C@H](CCCCN)C(=O)N[C@H](Cc1c[nH]c2ccccc12)C(=O)N[C@H](CCCNC(=N)N)C(=O)N[C@H](CCCCN)C(=O)N[C@H](Cc1c[nH]c2ccccc12)C(=O)N[C@H](CCCNC(=N)N)C(=O)N[C@H](CCCCN)C(N)=O,,mouse,"intraperitoneal, 40 mg/kg single dose, day 6",,survival,75%
CC[C@H](C)[C@H](NC(=O)[C@H](CCCCN)NC(=O)CNC(=O)[C@H](CC(C)C)NC(=O)[C@H](Cc1ccccc1)NC(=O)[C@H](CCCCN)NC(=O)[C@H](CO)NC(=O)[C@H](Cc1ccccc1)NC(=O)[C@H](Cc1c[nH]c2ccccc12)NC(=O)[C@H](CCC(N)=O)NC(=O)[C@@H](NC(=O)[C@H](Cc1ccccc1)NC(=O)CCCCCNC(=O)CN1CCN(CC(=O)O)CCN(CC(=O)O)CCN(CC(=O)O)CC1)C(C)C)C(=O)N[C@@H](CCC(=O)O)C(=O)N1CCC[C@H]1C(=O)N[C@@H](CC(=O)O)C(=O)N[C@H](C(=O)N[C@@H](CO)C(=O)N[C@@H](CCC(N)=O)C(=O)N[C@H](C(=O)N[C@@H](CCC(N)=O)C(=O)N[C@@H](CC(=O)O)C(=O)N1CCC[C@H]1C(=O)N[C@@H](CC(N)=O)C(=O)N[C@@H](CC(=O)O)C(=O)N[C@@H](CCC(N)=O)C(=O)N[C@@H](Cc1ccc(O)cc1)C(=O)N[C@@H](CCC(=O)O)C(=O)N1CCC[C@H]1C(=O)N[C@@H](Cc1ccccc1)C(=O)O)C(C)C)C(C)C [copper-64 labelled],dynamic PET,"mouse both sexes, CT26 tumour, checkpoint inhibitor-treated, tumour","intravenous, 100 µCi/mouse, 630 s",,SUVmean,4.73 SUV
CCCC[C@H]1C(=O)N(C)[C@@H](CCCC)C(=O)N[C@@H](CCCNC(=O)CN2CCN(CC(=O)O)CCN(CC(=O)O)CCN(CC(=O)O)CC2)C(=O)N[C@H](C(=O)NCC(N)=O)CSCC(=O)N[C@@H](Cc2ccc(O)cc2)C(=O)N(C)[C@@H](C)C(=O)N[C@@H](CC(N)=O)C(=O)N2CCC[C@H]2C(=O)N[C@@H](Cc2c[nH]cn2)C(=O)N[C@@H](CC(C)C)C(=O)N(C)CC(=O)N[C@@H](Cc2c[nH]c3ccccc23)C(=O)N[C@@H](CO)C(=O)N[C@@H](Cc2c[nH]c3ccccc23)C(=O)N1C [gallium-68 labelled],,"NOD/SCID mice, CHO-hPD-L1 xenograft, tumour",30 min p.i.,,tumour uptake,7.61 ± 0.67 %ID/g
CC[C@H](C)[C@H](NC(=O)[C@H](CCC(N)=O)NC(=O)[C@H](Cc1c[nH]cn1)NC(=O)[C@H](C)NC(=O)[C@H](CC(C)C)NC(=O)[C@H](CCCCN)NC(=O)[C@H](CCC(N)=O)NC(=O)[C@@H](NC(=O)[C@@H](NC(=O)[C@@H]1CSSC[C@H](NC(=O)CNC(=O)[C@H](Cc2ccccc2)NC(=O)[C@H](CO)NC(=O)[C@H](CCCNC(=N)N)NC(=O)[C@H](CC(C)C)NC(=O)CNC(=O)[C@H](CCC(N)=O)NC(=O)[C@H](Cc2ccccc2)NC(=O)[C@H](CC(N)=O)NC(=O)[C@H](CC(N)=O)NC(=O)[C@H](CCSC)NC(=O)[C@H](CO)NC(=O)[C@H](CCC(N)=O)NC(=O)[C@H](CCCNC(=N)N)NC(=O)[C@@H](N)Cc2ccc(O)cc2)C(=O)N[C@@H](CCCNC(=N)N)C(=O)N[C@@H](Cc2ccccc2)C(=O)NCC(=O)N[C@@H]([C@@H](C)O)C(=O)N1)[C@@H](C)O)C(C)C)C(=O)N[C@@H](Cc1ccc(O)cc1)C(=O)N[C@@H](CCC(N)=O)C(=O)N[C@@H](Cc1ccccc1)C(=O)N[C@H](C(=O)N[C@@H](CC(=O)O)C(=O)N[C@@H](CCCCN)C(=O)N[C@@H](CC(=O)O)C(=O)N[C@@H](CCCCN)C(=O)N[C@@H](CC(=O)O)C(=O)N[C@@H](CC(N)=O)C(=O)N[C@H](C(=O)N[C@@H](C)C(=O)N1CCC[C@H]1C(=O)N[C@@H](CCCNC(=N)N)C(=O)N[C@@H](CO)C(=O)N[C@@H](CCCCN)C(=O)N[C@H](C(=O)N[C@@H](CO)C(=O)N1CCC[C@H]1C(=O)N[C@@H](CCC(N)=O)C(=O)NCC(=O)N[C@@H](Cc1ccc(O)cc1)C(=O)NCC(=O)O)[C@@H](C)CC)C(C)C)[C@@H](C)O,,human EDTA plasma,"3 h, 4 °C, storage stability",reference: untreated samples,recovery,113%
CCCCCCCCCCCCCCCC(=O)OCC(CSC[C@H](N)C(=O)N[C@@H](CO)C(=O)N[C@@H](CCCCN)C(=O)N[C@@H](CCCCN)C(=O)N[C@@H](CCCCN)C(=O)N[C@@H](CCCCN)C(=O)NCCCCCC(=O)N[C@@H](CCCCN)C(=O)N[C@@H](CC(C)C)C(=O)N[C@H](C(=O)N[C@@H](Cc1ccccc1)C(=O)N[C@@H](Cc1ccccc1)C(=O)N[C@@H](Cc1ccc2ccccc2c1)C(=O)O)C(C)C)OC(=O)CCCCCCCCCCCCCCC (some centres unmarked),,"C57BL/6J mouse, serum","intraperitoneal, dose not given",,serum AST,77 U/L and 113 U/L and 76 U/L
